Published values gathered from unrelated publications.
Numbered parts are unrelated; each lists some results of a single study.

Sample 1
Target: Histone acetyltransferase KAT6A, winged helix 2, GST fusion (KAT6A, Homo sapiens, UniProt Q92794, residues 85-181)
Technique: protein binding microarray
Form: double-stranded DNA, one strand shown
Medium: in vitro
Concentration: not given
Setting: 8-mer, flanks averaged, mean of 2 arrays, mostly near background
Reference: not given
Direction: higher = stronger binding
Residues (chain): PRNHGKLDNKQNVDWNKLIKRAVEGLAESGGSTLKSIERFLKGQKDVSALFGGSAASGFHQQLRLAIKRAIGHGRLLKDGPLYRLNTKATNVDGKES
For `GGAGGCCC`, the E-score was 0.0163.
`CGGGATAG` gave an E-score of -0.0827.
With `AACTATAG` the E-score was -0.0829.
For `CGAAAATA`, the E-score was 0.068.
With `CCTCATTA` the E-score was -0.0457.
For `CTATCACA`, the E-score was -0.025.
For `ATCCCGGA`, the E-score was -0.0204.
With `ACTAACTC` the E-score was -0.0705.
With `ACGAGGAA` the E-score was -0.0675.
The E-score of `AACGGGTA` is reported as 0.143.
`CTAACTAA` has an E-score of -0.0887.
With `AGACATCC` the E-score was -0.00454.
For `CAAAGGCG`, the E-score was -0.0776.
`ACCTTTAA` gave an E-score of -0.0138.
With `CCTAAGAG` the E-score was -0.0326.
With `ACCTAGAA` the E-score was -0.0616.
`GATGATGC` gave an E-score of -0.0999.
`ACGATTAG` gave an E-score of -0.0144.
With `AATATTAC` the E-score was -0.0888.

Sample 2
Target: Centromere-binding protein 1, full length, N-terminal tag (CBF1, Saccharomyces cerevisiae, UniProt P17106, residues 1-351)
Chain of UniProt P17106 (whole entry, looked up): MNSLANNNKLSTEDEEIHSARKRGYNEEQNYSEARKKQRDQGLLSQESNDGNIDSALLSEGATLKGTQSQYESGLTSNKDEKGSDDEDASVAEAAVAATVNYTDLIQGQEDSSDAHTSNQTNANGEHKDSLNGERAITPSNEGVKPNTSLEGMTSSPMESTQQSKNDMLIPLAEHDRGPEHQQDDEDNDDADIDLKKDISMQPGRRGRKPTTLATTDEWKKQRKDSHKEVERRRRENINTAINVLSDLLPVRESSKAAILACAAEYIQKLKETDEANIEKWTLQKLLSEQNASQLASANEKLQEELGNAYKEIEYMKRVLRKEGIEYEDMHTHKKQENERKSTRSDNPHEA
Technique: protein-binding microarray
Form: double-stranded DNA, one strand shown
Medium: in vitro
Concentration: 0.8 µM
Setting: whole 60-bp probe, no competitor
Direction: higher = stronger binding
With `GAAACATATAAAACACACGATGATTGATTGATTTAGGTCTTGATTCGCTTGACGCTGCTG` the fluorescence intensity was 508 a.u.
For `GAATTCCTAGACATTCTCGTGGTCTTTTCTTTGTAGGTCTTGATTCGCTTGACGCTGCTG`, the fluorescence intensity was 576 a.u.
With `CCTAACTACTATAGTCACAACAAATAGCTTCGTACAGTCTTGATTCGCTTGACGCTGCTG` the fluorescence intensity was 523 a.u.
The fluorescence intensity of `GAAACTATTACATATCACATGGTATAGCATACATAGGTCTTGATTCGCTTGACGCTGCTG` is reported as 3550 a.u.
The fluorescence intensity of `CTATCCAAAACACATCACCAGATATAGGACTGATTCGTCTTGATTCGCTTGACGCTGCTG` is reported as 537 a.u.
The fluorescence intensity of `CTAACGTGTTAAAATGACATCAGGTATCAATGCTTCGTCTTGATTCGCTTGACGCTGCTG` is reported as 502 a.u.
`CTATTTATCTTTTCTCACCTCACAACGTTTATATTCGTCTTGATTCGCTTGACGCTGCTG` has a fluorescence intensity of 560 a.u.
The fluorescence intensity of `GAATTTTTTTGCAGTCATGTGAATTTTCCGACTTAGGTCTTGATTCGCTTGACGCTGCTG` is reported as 2170 a.u.
`CTATCTTGTATTCATGTGATTGTAAATAATATTTTCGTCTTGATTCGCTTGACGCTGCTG` has a fluorescence intensity of 1460 a.u.
For `CTATTTTGGTGAGGGTGCGTGACTTGAAACTAATTCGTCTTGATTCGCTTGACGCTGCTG`, the fluorescence intensity was 2200 a.u.
`GAATTCATGCGATTTCTCCTGATAATAGACGATTAGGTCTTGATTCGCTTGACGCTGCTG` gave a fluorescence intensity of 531 a.u.
`GAATTGCACTTACGTGACGTGACGAAATATTAGTAGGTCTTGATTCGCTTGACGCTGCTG` has a fluorescence intensity of 1060 a.u.
`GAAAAGCATTATTCACACCTGATAAGGATTTTCTAGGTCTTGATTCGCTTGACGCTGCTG` gave a fluorescence intensity of 773 a.u.
With `CTATTCGTGGATGGTCATGCGTATTTGAAAACATTCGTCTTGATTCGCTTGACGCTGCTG` the fluorescence intensity was 875 a.u.
`CTAAGAATTAAGTAACACGCAACAACTGCATTCTTCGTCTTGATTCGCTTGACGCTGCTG` gave a fluorescence intensity of 537 a.u.
`CTACGATGCTTACTCAAGGTGACACAATCGTTATTCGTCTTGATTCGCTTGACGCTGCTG` has a fluorescence intensity of 515 a.u.
For `GAACGCTACGTAAAGTACATCATGTTTACCAGTTAGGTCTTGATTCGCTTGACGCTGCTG`, the fluorescence intensity was 508 a.u.
`CTAAACATAGAAGACCGCGTGATTCATTTTAGTTTCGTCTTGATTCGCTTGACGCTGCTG` has a fluorescence intensity of 1360 a.u.
For `GAAGGTAGTCTAAAGAACGTGCATCAGAGAAGATAGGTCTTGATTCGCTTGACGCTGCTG`, the fluorescence intensity was 816 a.u.
`CTATTATGACAAGTAGACATGATGCCGCAGCCTTTCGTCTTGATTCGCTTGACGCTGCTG` has a fluorescence intensity of 524 a.u.
For `GAAGATGGTATTTAACACATGAAAATCTTCATATAGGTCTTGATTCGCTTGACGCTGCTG`, the fluorescence intensity was 533 a.u.
For `GAAATATTCTTTCATAACGTGAAACATAAAGTTTAGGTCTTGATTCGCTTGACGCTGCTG`, the fluorescence intensity was 567 a.u.
`CTAACCCCCAGCTGGGATGTGATCACGATGAGTTTCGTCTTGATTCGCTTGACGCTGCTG` gave a fluorescence intensity of 778 a.u.
`GAAGCTAAGAGGGCACTTGGTCACAACTACAGATAGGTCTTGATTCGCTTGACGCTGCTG` has a fluorescence intensity of 587 a.u.

Sample 3
Target: Prothrombin, mature alpha-thrombin (F2, Homo sapiens, UniProt P00734)
Technique: aptamer microarray, sandwich
Form: DNA with 2'F-ANA
Medium: in vitro
Concentration: 200 nM
Setting: whole 15-mer aptamer, many near background
Together with: Cy3 exosite-II aptamer, 400 nM
Direction: higher = stronger binding
Sequence: GGTTGGTGTGGTTGG
For `2'F-ANA at 1 2 3 4 5 8 10 12 13 14 15`, “mean fluorescence intensity” read 52.8 a.u.
`2'F-ANA at 3 4 5 7 8 11 12 15`: “mean fluorescence intensity” 178 a.u.
`2'F-ANA at 3 4 6 8 9 10 13` — result for “mean fluorescence intensity”: 356 a.u.
`2'F-ANA at 1 3 4 7 8 9 10 11 13 14`: “mean fluorescence intensity” 50.6 a.u.
Under “mean fluorescence intensity”, `2'F-ANA at 1 4 5 8 10 11 12` is recorded as 47.6 a.u.
`2'F-ANA at 1 3 12 13 14 15` — result for “mean fluorescence intensity”: 127 a.u.
`2'F-ANA at 4 5 6 7 12 15` — result for “mean fluorescence intensity”: 131 a.u.
`2'F-ANA at 1 2 3 6 9 12 14`: “mean fluorescence intensity” 77.6 a.u.
Under “mean fluorescence intensity”, `2'F-ANA at 3 7 8 10 14` is recorded as 489 a.u.
For `2'F-ANA at 3 5 6 7 8 9 10 11 14 15`, “mean fluorescence intensity” read 58.4 a.u.
`2'F-ANA at 4 5 7 10 11 12 13 15` — result for “mean fluorescence intensity”: 48.7 a.u.
Under “mean fluorescence intensity”, `2'F-ANA at 2 6 7 8 9 10 13 14 15` is recorded as 121 a.u.
For `2'F-ANA at 1 2 6 7 8 11 12 13 14`, “mean fluorescence intensity” read 77 a.u.
`2'F-ANA at 1 6 7 8 10 13 14 15`: “mean fluorescence intensity” 48.1 a.u.
`2'F-ANA at 3 4 6 7 9 10 11` — result for “mean fluorescence intensity”: 225 a.u.
Under “mean fluorescence intensity”, `2'F-ANA at 1 2 3 6 7 9 10 14` is recorded as 52.9 a.u.

Sample 4
Target: RNA binding protein fox-1 homolog 2, RRM domain, GST-SBP tag (RBFOX2, Homo sapiens, UniProt O43251-10, residues 100-194)
Technique: RNA Bind-n-Seq
Form: RNA
Medium: in vitro
Concentration: 365 nM
Setting: natural RNA segment, single round, ends assumed
Reference: no-protein control
Direction: higher = stronger binding
Construct (chain): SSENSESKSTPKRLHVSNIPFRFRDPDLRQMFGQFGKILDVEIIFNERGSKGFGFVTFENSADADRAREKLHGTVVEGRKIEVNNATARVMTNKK
For `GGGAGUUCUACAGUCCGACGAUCCUGCCAGCAGUACAGGGCACAGCCCAAGCCACCAUAGGCCAGCCUGGAGUCUUUUUCAUGCUCUGGUCACCCAAGCUGCCUCAGAACCCAUUUGCUUCUCUCCUUCCUGGUGGAAUUCUCGGGUGCCAA`, “RBNS enrichment (R)” read 0.359.
`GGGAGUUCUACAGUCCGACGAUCGUUGGGGGCCCCCGACCCACCAUACCUACGCCUAGGGAGCCCGUCCUCCAGUAUUCCGUCUGUAGCAGGAGCUAGGGCUGCUGCCUCAGCUCCAAGACAAGAAUGAACCUUGGAAUUCUCGGGUGCCAA`: “RBNS enrichment (R)” 0.438.
For `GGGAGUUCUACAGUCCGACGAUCUUGUUGGUGGCGAUCGACCAGAUGUGUUCGUCUGCACAGCCGCGAGGCAACACUGUUCCGUUUGCACAUGAAGGACCACCACUCACCCCUCCCCCCAGGACCACCCAGGCUGGAAUUCUCGGGUGCCAA`, “RBNS enrichment (R)” read 0.435.
For `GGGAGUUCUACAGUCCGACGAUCGGUUGGUGAUCCAUUGGGUGGAUCAGGACGGAACUCUGUGUCCCCAGGUCUCAGGAGUGCCAUCCCCGGGCUCAGCUCCAGUUCCCUGGGCUCAUGCUACUAGUGCUCUGUGGAAUUCUCGGGUGCCAA`, “RBNS enrichment (R)” read 0.581.
`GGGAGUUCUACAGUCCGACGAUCGGUCGAAAGUUAGUAGGAUAUGCCUGCUCUUUGGCCUGAUGACCAAUUUUAACUUAGAGCUUUUUUUUUUUAAUUUUGUCUGCCCCAAGUUUUGUGAAAUUUUUCAUAUUUGGAAUUCUCGGGUGCCAA`: “RBNS enrichment (R)” 1.26.
`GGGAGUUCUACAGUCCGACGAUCAUAUUUCCAAGACCCUACAACUCCAGCCUUGCCCUAUGACAUCAUCAAGGAUCUCCACAGAGGUGACUGUUGCCUAUCCACAACGACACUAGUGAUCACUCUUCAGAGAGUGGAAUUCUCGGGUGCCAA`: “RBNS enrichment (R)” 0.394.
Under “RBNS enrichment (R)”, `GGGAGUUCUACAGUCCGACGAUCUACAGCUGGCUGUCUACUACUCAGAGGGCUUCAAAGGUGUGGGGUGGCCCUGCCAGCAGGCGGAGGAUGAGGCCCUCCUUCUCUGAGGACGGGUCUGCUGGAGAGAGAAGUGGAAUUCUCGGGUGCCAA` is recorded as 1.15.
For `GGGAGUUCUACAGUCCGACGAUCUUCUGAACUGUUGGAUUCUAGGCAUUCCUGAGAAAUUGAAAGUGGCUACCUUUCAUGUCAAAAUGUUGAUCUGUUAUAAAUAAAUGUUUUGCAUACUUGUUUUUGCUGUGUGGAAUUCUCGGGUGCCAA`, “RBNS enrichment (R)” read 0.272.
`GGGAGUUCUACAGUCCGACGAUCGAGCAUCUGGGCCGGGCAUGGUGGCUCACGCCUGUAAUCCCAGCACUCUGGGAGGUCGAGGUGGGUGGGUCACCUGAGGUUGGGAGUUCGAGACCAGCCCGACCAACAUGUGGAAUUCUCGGGUGCCAA` — result for “RBNS enrichment (R)”: 0.389.
`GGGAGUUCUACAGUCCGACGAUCAUGCUGCUCAGCUUGCAGUCAUGCAGGGAGCCAACGUCCUCGUAACUCAGCGGAAGGGGAACUUCUUCAUGGGUGGUUCAGAUGGUGGCUACACCAUCUGGUGAGGAACCUGGAAUUCUCGGGUGCCAA`: “RBNS enrichment (R)” 0.223.
`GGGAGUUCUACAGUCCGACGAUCGUGAUCAUUGUUGAACUUCAGCUCCAGUGUCUCUCCAGAAUAAGACAUUGGCAUUCAAAUGUCUAUAUCUUGUUACUUACAAAAUAAAAAACAGAUUAAUUAGUGGCUUUUGGAAUUCUCGGGUGCCAA` — result for “RBNS enrichment (R)”: 0.593.
For `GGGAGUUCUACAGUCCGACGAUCUUCAUAGUCAUUGAGAAUGUGGAGAUACCAGUUUGGGUGGGGGGUGAUCACCAGGGGACCUAGGGAGAUCCCCUUCCCACCCUCUCUGUUGGCCUCAGAGUCACUCCUGCUGGAAUUCUCGGGUGCCAA`, “RBNS enrichment (R)” read 0.267.
